Published values of several laboratories.
Parts stem from different laboratories: compare values within a part only.

Series 1
Target: Histone acetyltransferase KAT6A, both winged helices, GST fusion (KAT6A, Homo sapiens, UniProt Q92794, residues 1-181)
Method: protein binding microarray
Molecule type: double-stranded DNA, one strand shown
Sample: in vitro
Tested at: not given
Setting: 8-mer, flanks averaged, mean of 2 arrays, mostly near background
Baseline: not given
Reading: higher = stronger binding
Target sequence (chain): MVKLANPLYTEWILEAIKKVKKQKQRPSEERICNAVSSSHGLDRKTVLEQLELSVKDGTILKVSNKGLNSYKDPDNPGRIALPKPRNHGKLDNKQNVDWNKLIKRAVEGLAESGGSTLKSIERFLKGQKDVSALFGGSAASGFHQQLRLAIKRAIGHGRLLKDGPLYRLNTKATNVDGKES
Oligonucleotide	E-score
TACAGCGA	-0.0923
CAGATACA	0.122
GAGGGGGC	-0.14
GCCGTGCA	0.221
GATCACAC	-0.0737
CGTTCCAA	-0.179
CTCGTTTA	-0.0908
ATCGGCAA	0.0605
AAGTCTCC	-0.125
GTGTGCTA	-0.00724
AGTTATGG	-0.165
ACTAAGAC	-0.0198
AAGGACAA	-0.128
AGAATTAG	-0.218
ATCAATTG	-0.0924
CAGTTGCA	-0.159

Series 2
Target: Centromere-binding protein 1, full length, His-tagged (CBF1, Saccharomyces cerevisiae, UniProt P17106, residues 1-351)
Sequence of UniProt P17106 (whole entry, looked up): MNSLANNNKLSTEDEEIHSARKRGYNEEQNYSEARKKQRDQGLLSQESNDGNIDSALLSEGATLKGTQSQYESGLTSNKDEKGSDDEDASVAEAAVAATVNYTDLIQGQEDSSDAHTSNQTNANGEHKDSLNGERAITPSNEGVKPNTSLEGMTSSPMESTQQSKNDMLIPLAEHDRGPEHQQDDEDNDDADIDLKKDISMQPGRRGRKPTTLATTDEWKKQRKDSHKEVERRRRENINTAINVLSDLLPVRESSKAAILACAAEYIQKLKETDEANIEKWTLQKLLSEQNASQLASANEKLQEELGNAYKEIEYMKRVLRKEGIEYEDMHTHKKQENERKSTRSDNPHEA
Method: competition protein-binding microarray
Molecule type: double-stranded DNA, one strand shown
Sample: in vitro
Tested at: 2 µM
Setting: whole 60-bp probe, lowest competitor level
Together with: Pho4 competitor, 0.05 µM
Reading: higher = stronger binding
Oligonucleotide	fluorescence intensity [a.u.]
TCGCGCCCTGTCAGGAACATGATGTCCGCCATTTGAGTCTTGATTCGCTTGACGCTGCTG	67.6
TTTTTTGAACTTCACCACGGGCTATTTTCTTCTTAGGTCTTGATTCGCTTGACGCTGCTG	84
CAACGATTGATTACGCAGATGACTAACCGCCAGTCAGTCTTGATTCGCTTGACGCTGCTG	77.9
ATCTTTCCGTGGAGTATCGTGACGGGACTAATGATCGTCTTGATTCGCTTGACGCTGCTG	209
CACTTCATACATGGCTACGTGGGTAACAAGGCCGCTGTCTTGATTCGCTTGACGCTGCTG	65.8
GGTCTCCTCGGTGAAAGCGTGATGGGATAGCCGTTAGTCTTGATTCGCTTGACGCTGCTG	121
GCGCGACTTGCAAGAAAAGGCATAATTGTGGCGAGGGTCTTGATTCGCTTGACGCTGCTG	77
TTTCCGCACAAGCACCATGTGTGAAAACATGCAGATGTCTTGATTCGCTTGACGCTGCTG	94.6
GTTGGGCCACCGGGACCCATGTCTGCGTCCGCGATAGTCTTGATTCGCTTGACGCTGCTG	44.2

Series 3
Target: Sal-like protein 4, full length isoform A (SALL4, Homo sapiens, UniProt Q9UJQ4, residues 1-1053)
Sequence of UniProt Q9UJQ4 (whole entry, looked up): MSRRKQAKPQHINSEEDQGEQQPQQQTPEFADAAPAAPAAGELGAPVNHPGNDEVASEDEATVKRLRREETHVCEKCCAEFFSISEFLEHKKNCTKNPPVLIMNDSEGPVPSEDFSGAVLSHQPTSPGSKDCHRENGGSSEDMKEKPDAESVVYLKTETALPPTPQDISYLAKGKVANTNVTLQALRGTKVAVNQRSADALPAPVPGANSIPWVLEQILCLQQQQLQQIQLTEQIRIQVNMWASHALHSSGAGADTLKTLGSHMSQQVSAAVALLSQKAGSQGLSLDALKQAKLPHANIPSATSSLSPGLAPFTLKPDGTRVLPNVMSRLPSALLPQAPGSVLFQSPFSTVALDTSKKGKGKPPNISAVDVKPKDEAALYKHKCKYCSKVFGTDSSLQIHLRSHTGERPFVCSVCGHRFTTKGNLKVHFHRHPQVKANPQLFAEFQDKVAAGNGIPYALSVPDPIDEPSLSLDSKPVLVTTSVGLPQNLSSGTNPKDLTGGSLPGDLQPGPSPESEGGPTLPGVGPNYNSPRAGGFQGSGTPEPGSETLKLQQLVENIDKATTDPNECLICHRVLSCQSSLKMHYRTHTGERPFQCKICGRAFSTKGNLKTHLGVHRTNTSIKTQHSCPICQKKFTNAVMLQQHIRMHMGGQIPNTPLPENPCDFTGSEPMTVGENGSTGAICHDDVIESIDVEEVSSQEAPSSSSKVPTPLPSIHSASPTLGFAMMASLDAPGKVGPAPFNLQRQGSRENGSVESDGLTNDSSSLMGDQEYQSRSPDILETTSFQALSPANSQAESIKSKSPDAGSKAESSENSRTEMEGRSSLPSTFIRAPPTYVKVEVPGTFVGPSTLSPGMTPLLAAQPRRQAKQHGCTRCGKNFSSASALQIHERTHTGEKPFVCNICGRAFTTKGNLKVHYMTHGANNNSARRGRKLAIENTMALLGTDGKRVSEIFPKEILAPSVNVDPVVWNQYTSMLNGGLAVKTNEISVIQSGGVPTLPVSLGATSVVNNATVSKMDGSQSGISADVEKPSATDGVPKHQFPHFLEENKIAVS
Method: universal PBM
Molecule type: double-stranded DNA, one strand shown
Sample: in vitro
Tested at: 600 nM
Setting: 8-mer, flanks averaged, mean of replicates
Reading: higher = stronger binding
Oligonucleotide	E-score
CCGAAGGA	-0.246
ATTCATGG	0.162
TAATCGCA	0.183
GAATTCCA	0.125
CAAGGTGG	-0.2
AAAGTGCC	-0.183

Series 4
Target: Interferon regulatory factor 7, full length, phosphomimetic (IRF7, Homo sapiens, UniProt Q92985, residues 1-503, S471D/S472D/S475D/S476D/S477D/S483D/S484D/S487D)
Method: protein-binding microarray
Molecule type: double-stranded DNA, one strand shown
Sample: in vitro
Tested at: 2200 nM top
Setting: 60-bp whole probe
Together with: salmon DNA 0.4 mg/ml
Baseline: random background probes
Reading: higher = stronger binding
Constant ends, left off below: GCCTAGCAC … GTCTTGATTCGCTTGACGCTGCTG
Residues (chain): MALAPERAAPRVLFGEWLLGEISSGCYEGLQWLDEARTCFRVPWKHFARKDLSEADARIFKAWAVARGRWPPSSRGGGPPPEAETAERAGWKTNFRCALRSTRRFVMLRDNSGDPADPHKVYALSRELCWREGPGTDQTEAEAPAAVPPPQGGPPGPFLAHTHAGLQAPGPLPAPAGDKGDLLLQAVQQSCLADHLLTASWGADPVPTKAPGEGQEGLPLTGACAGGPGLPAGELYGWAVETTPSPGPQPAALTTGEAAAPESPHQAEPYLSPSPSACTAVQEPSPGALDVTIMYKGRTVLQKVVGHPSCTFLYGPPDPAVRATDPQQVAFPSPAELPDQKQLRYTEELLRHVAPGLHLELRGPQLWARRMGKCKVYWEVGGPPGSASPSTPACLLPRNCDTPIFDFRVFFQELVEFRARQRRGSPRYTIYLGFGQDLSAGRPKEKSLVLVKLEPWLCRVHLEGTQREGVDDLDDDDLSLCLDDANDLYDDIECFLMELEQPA
Oligonucleotide	fitted relative affinity [z-score]
TCATCTTGCAGATGTCGCACTGTGCTA	0.996
GACGATTTTGGGTATCGAGACGTGCTA	0.933
TACCTTAGGTTTTCTGGTTCCGTGCTA	2.46
TTAGTACTGGGACTGGGTTAGTGCTAG	-0.161
TGAGATTTCGGGTATCGATTAGTGCTA	2.74

Other studies, line by line
Molecule	target	assay	system	setting	how to read	endpoint	value
PhoQ, residues 284 288 289 292 302 303 ALASRC	PhoP, residues 12 14 15 18 19 LHHSG (Escherichia coli, UniProt P23836)	Sort-seq, measured: YFP reporter	E. coli	PhoQ-PhoP variant library, together with: 10 µM Mg2+	baseline: high Mg2+ state, higher = stronger signaling	fold induction	8.85

A few entries again (series 1):
Oligonucleotide	E-score
ACTAAGAC	-0.0198
TACAGCGA	-0.0923
AAGTCTCC	-0.125
